# Measured values from different studies.
# Each line is one published result; not all experiments were run side by side. ± marks the error that the study gave.
# SRC: Proto-oncogene tyrosine-protein kinase Src (SRC, Homo sapiens, UniProt P12931)
SMILES,target,test,conditions,measurement,value
Cc1ccc2oc(-c3c4c(N)n[nH]c(=O)c4nn3-c3ccc(NC(=O)/C=C/CN(C)C)cc3)c(C)c2c1,SRC,"enzyme activity, inhibitor, ELISA",,IC50,> 1000 nM
CC(=O)N[C@@H](CCNC(=O)[C@H](CCCNC(=O)c1cnccn1)NC(=O)[C@H](Cc1ccco1)NC(=O)[C@H](CC1CC1)NC(C)=O)C(N)=O,SRC,Z′-LYTE,added: ATP at Km,IC50,> 100000 nM
CNC(=O)C1CCN(c2cc(C)c(F)cc2NC(=O)c2ccc(-c3cc(O)ccc3C)c(C)c2)CC1,SRC,"cell-free assay, TR-FRET",,Ki,11.9 nM
CC(C)(O)Cn1cc(-c2ccc3nc(OC(F)F)ccc3c2)c2c(N)ncnc21,SRC,"enzyme activity, inhibitor",,IC50,> 10000 nM
COc1ccc2c(c1)C(=C1Nc3ccccc3C1=NOCC(O)CO)C(=O)N2 (stereo not drawn),SRC,"enzyme activity, inhibitor, radiometric",,IC50,10.7 nM
C=CC(=O)N1CCc2ccc(-n3c(=O)ccc4cnc5ccc(-c6cnn(C)c6)cc5c43)cc21,SRC,"enzyme activity, inhibitor",,IC50,> 10000 nM
Cc1nc(Nc2ncc(C(=O)Nc3c(C)cccc3Cl)s2)cc(N2CCN(CCOC(=O)[C@@H](N)CS)CC2)n1,SRC,"enzyme activity, inhibitor",,IC50,6.6 nM
CC(C)(O)Cn1nc(-c2ccc3nc(OC(F)F)ccc3c2)c2c(N)ncnc21,SRC,"enzyme activity, inhibitor",,IC50,> 10000 nM
Cc1nc(Nc2ncc(C(=O)Nc3c(C)cccc3Cl)s2)cc(N2CCN(CCOC(=O)CCCCCCCCCCN)CC2)n1,SRC,"enzyme activity, inhibitor",,IC50,1 nM
N=C(N)NCCC[C@@H]1NC(=O)[C@H](Cc2c[nH]c3ccccc23)NC(=O)[C@H](CCCNC(=N)N)NC(=O)[C@H](Cc2c[nH]c3ccccc23)NC(=O)[C@H](CCCNC(=N)N)NC(=O)[C@H](Cc2c[nH]c3ccccc23)NC(=O)[C@H](CCCNC(=N)N)NC(=O)[C@H](Cc2c[nH]c3ccccc23)NC(=O)[C@H](CCCNC(=N)N)NC(=O)[C@H](Cc2c[nH]c3ccccc23)NC(=O)[C@H](CCCNC(=N)N)NC(=O)[C@H](Cc2c[nH]c3ccccc23)NC(=O)[C@H](CCCNC(=N)N)NC(=O)[C@H](Cc2c[nH]c3ccccc23)NC1=O,SRC,"enzyme activity, inhibitor, radiometric",,IC50,350 nM
Cc1nc(Nc2ncc(C(=O)Nc3c(C)cccc3Cl)s2)cc(N2CCN(CCOC(=O)[C@@H](N)CCCNC(=N)N)CC2)n1,SRC,"enzyme activity, inhibitor",,IC50,< 0.25 nM
C#Cc1cccc(Nc2ncnc3cc(OC)c(OCCCN4CCOCC4)cc23)c1,SRC,"enzyme activity, inhibitor","30 min, added: ATP 80.8 µM",IC50,5210 ± 386 nM
CSCC[C@H](NC(=O)[C@H](CS)NC(=O)[C@H](CC(=O)O)NC(=O)CN)C(=O)N[C@@H](Cc1ccc(OP(=O)(O)O)cc1)C(=O)N[C@@H](C)C(=O)N1CCC[C@H]1C(=O)N[C@@H](CC(C)C)C(=O)N[C@@H](CC(C)C)C(=O)NCC(=O)N[C@H](C(=O)N1CCC[C@H]1C(=O)N[C@@H](CC(=O)O)C(=O)O)C(C)C,"Proto-oncogene tyrosine-protein kinase Src, SH2 (SRC, Homo sapiens, UniProt P12931)","binding, FP",,Kd,1850 nM
N=C(N)NCCC[C@@H]1NC(=O)[C@H](Cc2c[nH]c3ccccc23)NC(=O)[C@H](CCCNC(=N)N)NC(=O)[C@H](Cc2c[nH]c3ccccc23)NC(=O)[C@H](CCCNC(=N)N)NC(=O)[C@H](Cc2c[nH]c3ccccc23)NC(=O)[C@H](CCCNC(=N)N)NC(=O)[C@H](Cc2c[nH]c3ccccc23)NC(=O)[C@H](CCCNC(=N)N)NC(=O)[C@H](Cc2c[nH]c3ccccc23)NC(=O)[C@H](CCCNC(=N)N)NC(=O)[C@H](Cc2c[nH]c3ccccc23)NC(=O)[C@H](CCCNC(=N)N)NC(=O)[C@H](Cc2c[nH]c3ccccc23)NC(=O)[C@H](CCCNC(=N)N)NC(=O)[C@H](Cc2c[nH]c3ccccc23)NC(=O)[C@H](CCCNC(=N)N)NC(=O)[C@H](Cc2c[nH]c3ccccc23)NC1=O,SRC,"enzyme activity, inhibitor, radiometric",,IC50,210 nM
CCCCCCCCCC(=O)OCCN1CCN(c2cc(Nc3ncc(C(=O)Nc4c(C)cccc4Cl)s3)nc(C)n2)CC1,SRC,"enzyme activity, inhibitor",,IC50,35 nM

# For quick reference, copied from above:
SMILES,target,test,conditions,measurement,value
CNC(=O)C1CCN(c2cc(C)c(F)cc2NC(=O)c2ccc(-c3cc(O)ccc3C)c(C)c2)CC1,SRC,"cell-free assay, TR-FRET",,Ki,11.9 nM
